Measured values pooled from the literature.
Every numbered part comes from another study and shows a few of its results, in no order. “And” joins repeats or separate records; there may be more than shown.
Chain of UniProt P42336 (whole entry, unmodified, looked up): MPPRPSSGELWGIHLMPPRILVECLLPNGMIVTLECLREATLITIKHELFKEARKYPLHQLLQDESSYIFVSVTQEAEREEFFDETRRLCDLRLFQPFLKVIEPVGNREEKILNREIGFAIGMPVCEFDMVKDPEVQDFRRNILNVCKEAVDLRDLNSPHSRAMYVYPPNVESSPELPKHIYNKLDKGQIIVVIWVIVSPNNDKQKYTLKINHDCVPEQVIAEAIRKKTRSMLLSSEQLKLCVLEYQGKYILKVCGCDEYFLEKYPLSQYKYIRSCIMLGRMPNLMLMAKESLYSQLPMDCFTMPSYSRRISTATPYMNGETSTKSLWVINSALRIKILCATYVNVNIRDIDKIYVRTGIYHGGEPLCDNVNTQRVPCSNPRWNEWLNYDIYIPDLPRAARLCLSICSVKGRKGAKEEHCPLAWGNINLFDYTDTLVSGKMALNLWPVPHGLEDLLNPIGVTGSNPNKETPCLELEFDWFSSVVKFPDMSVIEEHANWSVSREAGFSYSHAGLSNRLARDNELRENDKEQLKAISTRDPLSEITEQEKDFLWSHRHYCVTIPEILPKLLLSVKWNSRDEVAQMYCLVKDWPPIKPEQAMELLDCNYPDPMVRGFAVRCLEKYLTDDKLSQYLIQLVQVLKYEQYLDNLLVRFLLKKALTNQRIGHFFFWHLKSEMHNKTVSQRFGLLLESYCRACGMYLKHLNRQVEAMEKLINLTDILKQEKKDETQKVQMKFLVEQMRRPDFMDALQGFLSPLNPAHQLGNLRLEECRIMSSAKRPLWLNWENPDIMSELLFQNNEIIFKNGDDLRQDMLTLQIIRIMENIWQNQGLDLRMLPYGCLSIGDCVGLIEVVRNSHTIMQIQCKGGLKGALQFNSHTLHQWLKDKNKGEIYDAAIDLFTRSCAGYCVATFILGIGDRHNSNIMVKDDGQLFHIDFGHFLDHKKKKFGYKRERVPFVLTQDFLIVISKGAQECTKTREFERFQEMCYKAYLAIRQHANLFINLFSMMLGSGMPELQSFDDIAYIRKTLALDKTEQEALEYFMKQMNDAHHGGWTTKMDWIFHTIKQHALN
Chain of UniProt P28482 (whole entry, looked up): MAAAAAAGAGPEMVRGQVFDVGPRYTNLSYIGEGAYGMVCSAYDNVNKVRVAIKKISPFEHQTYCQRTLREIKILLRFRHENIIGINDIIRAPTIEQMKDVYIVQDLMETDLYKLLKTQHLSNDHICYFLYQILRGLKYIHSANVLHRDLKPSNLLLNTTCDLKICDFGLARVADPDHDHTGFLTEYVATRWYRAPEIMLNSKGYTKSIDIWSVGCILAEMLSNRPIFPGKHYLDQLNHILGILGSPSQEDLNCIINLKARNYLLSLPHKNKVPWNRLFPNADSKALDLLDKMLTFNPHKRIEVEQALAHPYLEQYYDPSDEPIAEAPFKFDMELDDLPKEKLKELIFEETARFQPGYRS
Chain of UniProt O60331 (whole entry, looked up): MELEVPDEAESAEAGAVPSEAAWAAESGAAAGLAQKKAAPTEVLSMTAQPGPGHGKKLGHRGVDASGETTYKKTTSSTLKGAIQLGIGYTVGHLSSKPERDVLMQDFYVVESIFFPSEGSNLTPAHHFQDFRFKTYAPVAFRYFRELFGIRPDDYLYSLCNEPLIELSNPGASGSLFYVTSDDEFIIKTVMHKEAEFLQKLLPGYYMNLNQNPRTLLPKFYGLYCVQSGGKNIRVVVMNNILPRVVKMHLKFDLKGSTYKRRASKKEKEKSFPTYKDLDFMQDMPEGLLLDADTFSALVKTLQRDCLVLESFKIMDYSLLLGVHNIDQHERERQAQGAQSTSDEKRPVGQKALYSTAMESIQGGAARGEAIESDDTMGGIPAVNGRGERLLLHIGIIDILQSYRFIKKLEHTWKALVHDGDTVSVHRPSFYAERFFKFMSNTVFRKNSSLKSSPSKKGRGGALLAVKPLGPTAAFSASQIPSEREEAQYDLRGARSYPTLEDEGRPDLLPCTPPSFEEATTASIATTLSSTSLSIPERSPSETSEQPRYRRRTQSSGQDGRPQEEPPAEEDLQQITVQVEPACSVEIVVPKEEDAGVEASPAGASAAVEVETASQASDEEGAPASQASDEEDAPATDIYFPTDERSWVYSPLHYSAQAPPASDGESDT
Chain of UniProt Q9H2G2 (whole entry, looked up): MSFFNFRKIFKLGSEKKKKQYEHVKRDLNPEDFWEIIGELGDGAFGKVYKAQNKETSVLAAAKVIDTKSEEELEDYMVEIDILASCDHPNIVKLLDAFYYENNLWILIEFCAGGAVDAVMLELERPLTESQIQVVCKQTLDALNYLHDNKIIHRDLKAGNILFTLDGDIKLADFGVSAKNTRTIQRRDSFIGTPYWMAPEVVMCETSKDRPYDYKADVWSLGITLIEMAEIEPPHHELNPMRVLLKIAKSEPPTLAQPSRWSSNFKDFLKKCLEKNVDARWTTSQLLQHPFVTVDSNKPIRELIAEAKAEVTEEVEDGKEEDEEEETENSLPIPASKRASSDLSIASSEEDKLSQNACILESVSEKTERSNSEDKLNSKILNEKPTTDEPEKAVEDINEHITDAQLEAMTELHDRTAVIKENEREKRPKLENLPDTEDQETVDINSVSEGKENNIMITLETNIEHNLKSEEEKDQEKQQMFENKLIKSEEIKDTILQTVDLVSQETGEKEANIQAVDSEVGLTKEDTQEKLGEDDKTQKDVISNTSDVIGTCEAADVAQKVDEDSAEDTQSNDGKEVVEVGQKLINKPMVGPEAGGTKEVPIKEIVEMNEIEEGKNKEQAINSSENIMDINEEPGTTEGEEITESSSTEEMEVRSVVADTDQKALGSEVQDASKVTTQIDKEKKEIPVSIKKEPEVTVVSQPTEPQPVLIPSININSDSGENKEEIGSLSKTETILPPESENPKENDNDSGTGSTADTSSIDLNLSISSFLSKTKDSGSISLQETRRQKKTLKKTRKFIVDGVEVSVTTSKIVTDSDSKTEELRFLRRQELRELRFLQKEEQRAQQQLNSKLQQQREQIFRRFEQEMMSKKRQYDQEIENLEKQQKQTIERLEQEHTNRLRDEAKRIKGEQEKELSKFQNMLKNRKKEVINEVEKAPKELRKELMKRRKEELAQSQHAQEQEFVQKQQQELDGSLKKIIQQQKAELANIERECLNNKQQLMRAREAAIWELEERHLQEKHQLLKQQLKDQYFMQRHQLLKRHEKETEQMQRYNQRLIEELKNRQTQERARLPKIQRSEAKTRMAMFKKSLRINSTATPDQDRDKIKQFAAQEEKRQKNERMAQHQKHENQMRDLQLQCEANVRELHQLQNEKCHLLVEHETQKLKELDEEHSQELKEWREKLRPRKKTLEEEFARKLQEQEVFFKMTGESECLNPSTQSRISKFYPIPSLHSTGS
Chain of UniProt P09769 (whole entry, looked up): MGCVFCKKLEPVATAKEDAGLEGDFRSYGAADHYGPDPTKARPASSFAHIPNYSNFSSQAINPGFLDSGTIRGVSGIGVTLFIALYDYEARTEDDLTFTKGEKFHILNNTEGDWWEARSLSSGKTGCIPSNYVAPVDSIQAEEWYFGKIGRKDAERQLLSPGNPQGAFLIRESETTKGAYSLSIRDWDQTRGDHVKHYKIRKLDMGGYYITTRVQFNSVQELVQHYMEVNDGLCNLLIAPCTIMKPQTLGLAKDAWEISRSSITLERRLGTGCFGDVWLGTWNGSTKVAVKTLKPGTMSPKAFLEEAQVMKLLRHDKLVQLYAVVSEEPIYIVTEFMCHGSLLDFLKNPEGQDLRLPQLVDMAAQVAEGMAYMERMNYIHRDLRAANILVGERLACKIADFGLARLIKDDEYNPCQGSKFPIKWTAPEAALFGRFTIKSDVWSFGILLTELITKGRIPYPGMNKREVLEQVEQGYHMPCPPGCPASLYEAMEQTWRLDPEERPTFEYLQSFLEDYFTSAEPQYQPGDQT
Chain of UniProt Q12852 (whole entry, looked up): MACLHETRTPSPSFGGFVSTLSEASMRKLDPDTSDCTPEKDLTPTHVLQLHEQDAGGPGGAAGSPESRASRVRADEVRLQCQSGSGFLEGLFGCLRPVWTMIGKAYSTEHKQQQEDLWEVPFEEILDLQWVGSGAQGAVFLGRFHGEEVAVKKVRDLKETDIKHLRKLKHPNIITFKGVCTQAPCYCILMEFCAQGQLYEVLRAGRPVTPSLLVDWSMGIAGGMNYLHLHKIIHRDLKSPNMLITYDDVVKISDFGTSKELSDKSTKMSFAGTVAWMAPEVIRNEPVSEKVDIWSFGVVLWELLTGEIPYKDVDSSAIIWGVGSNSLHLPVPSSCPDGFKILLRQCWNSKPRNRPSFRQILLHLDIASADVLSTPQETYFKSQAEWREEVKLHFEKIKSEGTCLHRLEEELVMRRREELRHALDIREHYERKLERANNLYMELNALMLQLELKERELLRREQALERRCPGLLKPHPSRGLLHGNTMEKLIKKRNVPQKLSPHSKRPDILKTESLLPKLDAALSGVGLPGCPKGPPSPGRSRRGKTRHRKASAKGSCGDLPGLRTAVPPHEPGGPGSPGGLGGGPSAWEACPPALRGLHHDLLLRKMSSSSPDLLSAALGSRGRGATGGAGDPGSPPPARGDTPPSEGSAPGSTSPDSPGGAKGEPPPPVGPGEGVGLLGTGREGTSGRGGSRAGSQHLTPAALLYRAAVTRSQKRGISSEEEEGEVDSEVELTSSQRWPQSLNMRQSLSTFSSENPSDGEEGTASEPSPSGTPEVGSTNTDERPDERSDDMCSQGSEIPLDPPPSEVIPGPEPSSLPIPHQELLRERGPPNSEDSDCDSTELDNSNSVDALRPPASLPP

Block 1 — host: C57BL/6 CES1-/- mice, EL4 tumour; route: subcutaneous; dose: 0.3 mg/kg/day DON equivalent; time: 5 days
SMILES: CC(=O)N[C@@H](Cc1c[nH]c2ccccc12)C(=O)N[C@@H](CCC(=O)C=[N+]=[N-])C(=O)OC(C)C
| assay | system | conditions | scale | metabolite peak intensity |
| --- | --- | --- | --- | --- |
| UPLC-MS/MS, measured: guanosine | EL4, tumour | normalised to tissue mass | higher = more metabolite | 2.19e+07 a.u. and 1.78e+07 a.u. and 1.66e+07 a.u. and 1.55e+07 a.u. and 1.2e+07 a.u. and 1.48e+07 a.u. |
| UPLC-MS/MS metabolomics, measured: glutamate | EL4 tumour | normalised to tissue mass | – | 6.17e+09 a.u. and 4.53e+09 a.u. and 5.12e+09 a.u. and 5.78e+09 a.u. and 3.7e+09 a.u. and 5.9e+09 a.u. |
| LC-MS/MS metabolomics, measured: phenylacetylglycine | EL4 tumour | – | higher = more metabolite | 354000 a.u. and 967000 a.u. and 254000 a.u. and 518000 a.u. and 334000 a.u. and 348000 a.u. |
| UPLC-MS/MS, measured: hypoxanthine | EL4, tumour | normalised to tissue mass | higher = more metabolite | 3.41e+07 a.u. and 3.7e+07 a.u. and 4.11e+07 a.u. and 3.44e+07 a.u. and 3.3e+07 a.u. and 3.31e+07 a.u. |
| UPLC-MS/MS, measured: ADP | EL4 tumour | – | – | 3.13e+06 a.u. and 5.72e+06 a.u. and 1.7e+06 a.u. and 2.28e+06 a.u. and 7.58e+06 a.u. and 7.49e+06 a.u. |
| UPLC-MS/MS metabolomics, measured: gamma-glutamylcysteine | EL4 tumour | normalised to tissue mass | – | 158000 a.u. and 73300 a.u. and 401000 a.u. and 702000 a.u. and 694000 a.u. and 588000 a.u. |

Block 2 — read-out: cell-free assay; method: competition with immobilised ligand; tested at: 1 µM
Structure (SMILES): CS(=O)(=O)NCC[C@H](NC(=O)c1cncc2c1cnn2-c1ccc(F)cc1)c1ccnc(S(C)(=O)=O)c1
| target | remaining binding [%] |
| --- | --- |
| DYRK2 (Homo sapiens, UniProt Q92630) | 91 |
| NUAK1 (Homo sapiens, UniProt O60285) | 85 |
| PIK3C2G (Homo sapiens, UniProt O75747) | 86 |
| PIK3CA (Homo sapiens, UniProt P42336, I800L) | 61 |
| PIK3CA (Homo sapiens, UniProt P42336, M1043I) | 95 |
| FLT3 (Homo sapiens, UniProt P36888, F691L/ITD) | 99 |
| SLK (Homo sapiens, UniProt Q9H2G2) | 100 |
| FGR (Homo sapiens, UniProt P09769) | 100 |
| TRPM6 (Homo sapiens, UniProt Q9BX84) | 100 |
| PRKCI (Homo sapiens, UniProt P41743) | 100 |
| PIP5K1C (Homo sapiens, UniProt O60331) | 78 |
| PRKCQ (Homo sapiens, UniProt Q04759) | 100 |
| EIF2AK1 (Homo sapiens, UniProt Q9BQI3) | 100 |
| FGFR3 (Homo sapiens, UniProt P22607) | 100 |
| MAP3K12 (Homo sapiens, UniProt Q12852) | 82 |
| CSNK1G3 (Homo sapiens, UniProt Q9Y6M4) | 96 |
| MAPK1 (Homo sapiens, UniProt P28482) | 100 |

Block 3 — read-out: enzyme activity; action: inhibitor; tested at: 0.5 µM; baseline: control
Target: Ephrin type-B receptor 3 (EPHB3, Homo sapiens, UniProt P54753)
Construct (P54753 1-998): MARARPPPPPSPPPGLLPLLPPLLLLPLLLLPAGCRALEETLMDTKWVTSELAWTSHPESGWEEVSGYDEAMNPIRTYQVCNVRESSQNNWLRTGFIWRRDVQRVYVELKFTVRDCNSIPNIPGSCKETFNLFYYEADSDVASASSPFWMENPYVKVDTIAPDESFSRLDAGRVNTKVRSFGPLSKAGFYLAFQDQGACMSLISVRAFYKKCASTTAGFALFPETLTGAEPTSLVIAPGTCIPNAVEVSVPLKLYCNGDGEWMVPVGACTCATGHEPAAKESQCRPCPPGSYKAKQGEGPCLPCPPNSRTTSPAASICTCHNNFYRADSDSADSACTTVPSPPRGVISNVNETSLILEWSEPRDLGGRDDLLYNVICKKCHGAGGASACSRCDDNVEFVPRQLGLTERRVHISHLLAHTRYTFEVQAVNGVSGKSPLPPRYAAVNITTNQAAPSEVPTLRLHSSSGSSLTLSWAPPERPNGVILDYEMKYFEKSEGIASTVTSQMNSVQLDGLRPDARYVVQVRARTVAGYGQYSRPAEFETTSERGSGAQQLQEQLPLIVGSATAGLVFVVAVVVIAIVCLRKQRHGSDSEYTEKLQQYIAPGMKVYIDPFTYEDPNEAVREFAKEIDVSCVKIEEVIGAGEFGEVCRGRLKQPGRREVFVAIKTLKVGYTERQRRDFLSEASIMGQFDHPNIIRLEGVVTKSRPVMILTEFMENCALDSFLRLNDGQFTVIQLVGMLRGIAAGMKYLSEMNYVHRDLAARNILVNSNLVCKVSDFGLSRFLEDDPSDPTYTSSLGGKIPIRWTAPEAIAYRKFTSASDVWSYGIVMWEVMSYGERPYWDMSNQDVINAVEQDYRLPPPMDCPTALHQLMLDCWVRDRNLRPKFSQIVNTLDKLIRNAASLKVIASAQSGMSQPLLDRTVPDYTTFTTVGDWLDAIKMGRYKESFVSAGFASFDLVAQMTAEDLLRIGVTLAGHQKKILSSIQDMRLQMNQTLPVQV
| Structure (SMILES) | remaining activity |
| --- | --- |
| CCOc1nc(NC(=O)Cc2cc(OC)ccc2OC)cc(N)c1C#N | 95.9% |
| Cn1nc2c3c(cccc31)C(=O)c1ccccc1-2 | 85.5% |
| Ic1cccc(CSc2nnc(-c3ccncc3)o2)c1 | 99.7% |
| CN([C@@H](Cc1ccc(OS(=O)(=O)c2cccc3cnccc23)cc1)C(=O)N1CCN(c2ccccc2)CC1)S(=O)(=O)c1cccc2cnccc12 | 97% |
| C[C@@H]1CCN(C(=O)CC#N)C[C@@H]1N(C)c1ncnc2[nH]ccc12 | 54.9% |
| CCN(CC)CCNC(=O)c1c(C)[nH]c(/C=C2\C(=O)Nc3ccc(F)cc32)c1C | 77.4% |
| Cc1cn(-c2cc(NC(=O)c3ccc(C)c(Nc4nccc(-c5cccnc5)n4)c3)cc(C(F)(F)F)c2)cn1 | 5.59% |
| CN(C)C[C@H]1CCn2c(c(C3=C(c4cn(C)c5ccccc45)C(=O)NC3=O)c3ccccc32)C1 | 105% |
| O=c1cc(-c2cccc3c2Sc2ccccc2S3)oc(N2CCOCC2)c1 | 105% |

Block 4 — host: human; matrix: microsomes or S9; tested at: 2 µM; time: 0.5 h
| SMILES | remaining compound |
| --- | --- |
| Cc1c(C#N)c2ccccc2n1Cc1nc(Cc2ccccc2)n[nH]1 | 65.9% |
| COc1ccc(CC(=O)O)cc1Nc1ncc(Cl)c(Nc2ccccc2S(=O)(=O)C(C)C)n1 | 61.7% |
| N#Cc1c(N)c(-c2ccccc2)c(F)c2ccccc12 | 16.1% |
| C[C@H](O)CNS(=O)(=O)C1CCc2cc(Br)ccc2C1 (stereo partly shown) | 89% |
| Fc1ccc(Nc2cnnc3c(Cl)cccc23)cc1 | 33.1% |
| CC1Nc2ncnc(NC(C)c3cc4ccccc4nc3-c3ccccc3)c2NC1=O (stereo not shown) | 21.8% |
| O=C(Nc1nnc(Cc2ccc3c(c2)OCO3)o1)c1cc2ccccc2o1 | 29.8% |
| O=C(NCCCn1cccn1)c1c(OCC2CC2)cc(=O)n2c1CCCCC2 | 78.3% |
| CCOC(=O)c1cc2n(c1)CCCc1c(N)n[nH]c1-2 | 68.8% |
| CCOC(=O)c1c(N)sc2c1CCC(CC)C2 (stereo not shown) | 81% |
| CC1CCCC(C)N1C(=O)Cn1cnc2cc3c(cc21)OCCO3 (stereo not shown) | 58.8% |

Repeated from above (block 2):
| target | remaining binding [%] |
| --- | --- |
| PRKCQ (Homo sapiens, UniProt Q04759) | 100 |
| MAPK1 (Homo sapiens, UniProt P28482) | 100 |
| TRPM6 (Homo sapiens, UniProt Q9BX84) | 100 |
| FGFR3 (Homo sapiens, UniProt P22607) | 100 |
| MAP3K12 (Homo sapiens, UniProt Q12852) | 82 |
